Measurements of several laboratories.
Each numbered part is a random draw from the data of one study; scales do not carry over between parts.

Sample 1 — method: universal PBM; form: double-stranded DNA, one strand shown; sample: in vitro; tested at: 600 nM; direction: higher = stronger binding
Target: Sal-like protein 4, full length isoform A (SALL4, Homo sapiens, UniProt Q9UJQ4, residues 1-1053)
Chain of UniProt Q9UJQ4 (whole entry, looked up): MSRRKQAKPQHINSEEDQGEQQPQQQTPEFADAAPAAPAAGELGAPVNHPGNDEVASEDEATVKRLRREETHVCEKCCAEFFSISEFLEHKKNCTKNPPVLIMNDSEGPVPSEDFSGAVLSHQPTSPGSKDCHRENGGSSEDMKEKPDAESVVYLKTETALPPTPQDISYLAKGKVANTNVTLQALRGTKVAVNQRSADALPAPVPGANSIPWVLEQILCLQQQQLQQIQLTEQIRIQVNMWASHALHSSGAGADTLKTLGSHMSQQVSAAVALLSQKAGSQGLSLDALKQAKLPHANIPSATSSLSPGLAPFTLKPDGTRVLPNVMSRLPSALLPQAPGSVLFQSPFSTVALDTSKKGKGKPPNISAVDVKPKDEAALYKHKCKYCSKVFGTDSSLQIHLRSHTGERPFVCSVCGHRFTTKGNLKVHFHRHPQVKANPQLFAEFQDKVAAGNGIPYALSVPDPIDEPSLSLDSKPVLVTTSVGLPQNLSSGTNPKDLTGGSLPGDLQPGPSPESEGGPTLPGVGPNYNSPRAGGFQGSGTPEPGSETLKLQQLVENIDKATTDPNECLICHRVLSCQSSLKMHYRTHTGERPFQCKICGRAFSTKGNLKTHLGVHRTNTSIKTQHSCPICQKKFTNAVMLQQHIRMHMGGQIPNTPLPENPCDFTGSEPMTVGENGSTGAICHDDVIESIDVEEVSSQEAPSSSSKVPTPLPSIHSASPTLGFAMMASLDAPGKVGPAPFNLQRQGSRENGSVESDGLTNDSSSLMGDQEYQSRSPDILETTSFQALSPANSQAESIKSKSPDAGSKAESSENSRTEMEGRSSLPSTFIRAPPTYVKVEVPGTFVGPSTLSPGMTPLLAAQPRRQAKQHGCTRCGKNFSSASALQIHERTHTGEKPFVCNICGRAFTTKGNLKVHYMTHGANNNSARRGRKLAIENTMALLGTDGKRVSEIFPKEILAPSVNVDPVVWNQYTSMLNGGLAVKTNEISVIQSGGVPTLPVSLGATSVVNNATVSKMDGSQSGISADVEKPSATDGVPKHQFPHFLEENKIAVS
Notes: 8-mer, flanks averaged, mean of replicates
With `CTCAGGGC` the E-score was -0.177.
For `CGAGATGC`, the E-score was -0.0451.
The E-score of `CGTAGTGC` is reported as -0.187.
`AACTAAGT` gave an E-score of 0.151.
`CGCCCGAC` gave an E-score of -0.303.
With `ATACTTAA` the E-score was 0.331.
For `ACAACGGT`, the E-score was -0.13.
`CCCGGTAC` gave an E-score of -0.353.
`AGCTTCAA` has an E-score of 0.11.

Sample 2 — method: protein binding microarray; form: double-stranded DNA, one strand shown; sample: in vitro; tested at: not given; relative to: not given; direction: higher = stronger binding
Target: Histone acetyltransferase KAT6A, both winged helices, GST fusion (KAT6A, Homo sapiens, UniProt Q92794, residues 1-181)
Notes: 8-mer, flanks averaged, mean of 2 arrays, mostly near background
Target sequence (chain): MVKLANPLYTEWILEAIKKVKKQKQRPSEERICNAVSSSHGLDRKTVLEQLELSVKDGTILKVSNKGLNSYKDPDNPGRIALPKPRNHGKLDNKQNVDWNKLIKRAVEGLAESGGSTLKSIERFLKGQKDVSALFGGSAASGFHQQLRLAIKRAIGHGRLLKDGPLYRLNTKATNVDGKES
The E-score of `CCGTCACA` is reported as 0.18.
The E-score of `AATTACCG` is reported as 0.207.
The E-score of `AAGACGGT` is reported as -0.0706.
The E-score of `ACAATACA` is reported as -0.00382.
`TACATACA` has an E-score of -0.0327.
`AGAATAAC` gave an E-score of -0.0494.

Sample 3 — method: RNA Bind-n-Seq; form: RNA; sample: in vitro; tested at: 1 µM; notes: whole 134-nt RNA, ends assumed; with: 150 mM KCl; relative to: input library; direction: higher = stronger binding
Target: Ras GTPase-activating protein-binding protein 1, C-terminal RGG region (G3BP1, Homo sapiens, UniProt Q13283)
Chain of UniProt Q13283 (whole entry, looked up): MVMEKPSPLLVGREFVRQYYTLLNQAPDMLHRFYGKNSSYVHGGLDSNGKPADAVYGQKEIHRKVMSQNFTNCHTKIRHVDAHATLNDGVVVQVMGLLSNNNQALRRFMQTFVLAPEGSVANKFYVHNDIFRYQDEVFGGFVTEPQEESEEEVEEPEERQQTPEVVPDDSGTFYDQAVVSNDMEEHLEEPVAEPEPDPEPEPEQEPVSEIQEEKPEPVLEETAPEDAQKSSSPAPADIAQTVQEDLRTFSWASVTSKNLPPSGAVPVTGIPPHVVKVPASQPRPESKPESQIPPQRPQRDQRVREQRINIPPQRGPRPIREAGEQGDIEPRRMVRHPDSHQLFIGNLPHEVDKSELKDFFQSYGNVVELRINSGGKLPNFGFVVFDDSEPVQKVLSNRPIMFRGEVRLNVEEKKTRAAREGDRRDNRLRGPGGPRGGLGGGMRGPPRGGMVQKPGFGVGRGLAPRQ
All sequences stand within: GGGAGUUCUACAGUCCGACGAUC … UGGAAUUCUCGGGUGUCAAGG
`CACAGACAACAUGCACCCACACAGACACAGAGGGAAGGGGUUGGGAUGGGGACAGGGUGCACAGCAGGGCGGGGUAGGACCCCAGCCCCU` has a log2 enrichment of -0.545.
With `GCAGGAAGUAAAAACAAAUGGAAAUGCUUCGGAUAGUGGCAGGGGUGGGGGUUGCUAAGGAAAGGGUGGGAAAAGAGUGGGUAAAGAGUU` the log2 enrichment was 2.33.
The log2 enrichment of `UCAAGUCCUGUGCUACACAUCGUAUGUACCGAAUCGGGUGGGUUUGGGAAAGGGAAAGUAUUAUGUUACGCCGUUCGGAUCUGCACUUCC` is reported as 1.65.
For `GUCCUGUGCUACACAUCGUAUGUACCGAAUCGGGGAAAAAGGAAAAAGGAAAAAGGGGAAAGUAUUAUGUUACGCCGUUCGGAUCUGCAC`, the log2 enrichment was -1.18.
For `CAAGUCCUGUGCUACACAUCGUAUGUACCGAAUCGGGUUUUGGUUUUGGUUUUGGAAAGUAUUAUGUUACGCCGUUCGGAUCUGCACUUC`, the log2 enrichment was -1.57.
The log2 enrichment of `CAAGUCCUGUGCUACACAUCGUAUGUACCGAAUCGGGAAAGGAAAGGGGAAAGGGGAAAGUAUUAUGUUACGCCGUUCGGAUCUGCACUU` is reported as -0.312.
`AUUUUUUGUAUCAAGUCCCUGAAUGGAAGUAUGACGUUGGGUCCCUCUGAAGUUUAAUUCUGAGUUCUCAUUAAAAGAAAUUUGCUUUCA` gave a log2 enrichment of -2.01.
The log2 enrichment of `UAACUUUAGAGGAGGAUCUGAUGGAUAUGGCAGUGGACGUGAAUUUGGGGAUGGCUAUAAUGGGUAUGGAGGAGGACCUGGAGGUGGCAA` is reported as -1.24.
The log2 enrichment of `ACCAUGCAGGUGGGCAUCUUUGGGAAAUGGGGCAAGGGGGGGAUAGGGAGGGGGGUAACACUUUGGGAACAGGUGGUCCCAGGUCGUUUC` is reported as -0.959.

Further values, each from its own experiment
For `PhoQ, residues 284 288 289 292 302 303 SLANKL`, the fold induction was 14 (PhoP, residues 12 14 15 18 19 TPWTL (Escherichia coli, UniProt P23836); Sort-seq, refers to: YFP reporter; E. coli; PhoQ-PhoP variant library, with: 10 µM Mg2+; relative to: high Mg2+ state, higher = stronger signaling).

For quick reference, copied from above (further values, each from its own experiment):
For `PhoQ, residues 284 288 289 292 302 303 SLANKL`, the fold induction was 14 (PhoP, residues 12 14 15 18 19 TPWTL (Escherichia coli, UniProt P23836); Sort-seq, refers to: YFP reporter; E. coli; PhoQ-PhoP variant library, with: 10 µM Mg2+; relative to: high Mg2+ state, higher = stronger signaling).
